Results pooled from the literature.
Compare with care: the assays were run in different laboratories.

With `CN[C@@H]1[C@H](O)[C@H](NC)[C@H]2O[C@]3(O)[C@H](O[C@@H]2[C@H]1O)O[C@H](C)C[C@@]3(O)CNCCc1ccc(F)cc1` the MIC was > 200 µg/mL (Mycobacteroides abscessus; ATCC 19977 resistant mutants, helix 34 mutations).
`CC[C@H](C)[C@H](NC(=O)[C@H](CO)NC(=O)[C@H](CO)NC(=O)[C@H](Cc1ccccc1)NC(=O)CN)C(=O)N[C@@H](Cc1ccccc1)C(=O)N[C@@H](CCCNC(=N)N)C(=O)NCC(=O)N[C@H](C(=O)N[C@@H](C)C(=O)N[C@@H](CCCCN)C(N)=O)C(C)C` gave an MIC of > 128 µM (Escherichia coli; ATCC 8739; added: 0.5 mM KCl).
For `COc1ccc(C2=[N+]([O-])c3ccccc3N3CCN=C23)cc1`, the MIC was ≤ 0.06 µg/mL (Parvimonas micra; ATCC 3870).
With `CCCCc1ccc(-c2nc(C)c(C(C)=NNC(=N)N)s2)cc1` the MIC was 2.6 µg/mL (Staphylococcus aureus; NRS37 VISA).
The MIC of `CCCCCCCCOC(=O)[C@@H]1NC(=O)[C@@H]2Cc3ccc(cc3)Oc3cc4cc(c3O)-c3ccc5c(c[nH]c5c3)C[C@@H](NC(=O)C(N)c3ccc(O)cc3)C(=O)N[C@H](c3ccc(O)cc3)C(=O)N[C@H]4C(=O)N[C@@H](C(=O)N2C)c2ccc(cc2)Oc2cc1ccc2O` (stereo partly shown) is reported as > 128 µg/mL (Enterococcus faecium; brain heart infusion medium).
`NCC1OC(OC2C(N)CC(N)C(OC3OC(CSc4ccccc4)C(O)C(N)C3O)C2O)C(N)CC1O` (stereo not shown) has an MIC of 18.8 µg/mL (Streptococcus pyogenes; M12 MGAS9429).
Under MIC, `CC[C@H](C)CCCCC(=O)N[C@@H](CCN)C(=O)N[C@H](C(=O)N[C@H](CO)C(=O)N[C@H]1CCNC(=O)[C@H](CC(C)C)NC(=O)[C@H](CCN)NC(=O)[C@H](CCN)NC(=O)[C@H]([C@@H](C)CC)NC(=O)[C@@H](CC(C)C)NC(=O)[C@H](CCN)NC1=O)[C@@H](C)O` is recorded as “increased” (Klebsiella pneumoniae, Acinetobacter baumannii; added: lipid A or LPS).
`COc1ccccc1C(=O)O[C@H]1[C@H](C)[C@H](O)[C@H](C)[C@@H](O)[C@@H](C)/C=C/C=C(/C)C(=O)NC2=C3NC4(CCN(CC(C)C)CC4)N=C3c3c(c(O)c(C)c4c3C(=O)[C@@](C)(O/C=C/[C@H](OC)[C@H]1C)O4)C2=O` gave an MIC of 0.03 µM (Mycobacteroides abscessus; ATCC 19977 arr deletion; 90% growth inhibition).
The MIC of `[O-][N+]1=C(Cc2ccccc2)C2=NCCCN2c2ccccc21` is reported as 0.125 µg/mL (Parvimonas micra; ATCC 3870).
For `CN(C)CCCNC(=O)[C@@H]1NC(=O)[C@@H]2Cc3ccc(cc3)Oc3cc4cc(c3O)-c3ccc5c(c[nH]c5c3)C[C@@H](NC(=O)C(NC(=O)CCCCCN)c3ccc(O)cc3)C(=O)N[C@H](c3ccc(O)cc3)C(=O)N[C@H]4C(=O)N[C@@H](C(=O)N2C)c2ccc(cc2)Oc2cc1ccc2O` (stereo partly shown), the MIC was 1 to 2 µg/mL (Enterococcus faecium; WCC 0553, VRE-B, BHI medium).

Repeated from above:
For `CN(C)CCCNC(=O)[C@@H]1NC(=O)[C@@H]2Cc3ccc(cc3)Oc3cc4cc(c3O)-c3ccc5c(c[nH]c5c3)C[C@@H](NC(=O)C(NC(=O)CCCCCN)c3ccc(O)cc3)C(=O)N[C@H](c3ccc(O)cc3)C(=O)N[C@H]4C(=O)N[C@@H](C(=O)N2C)c2ccc(cc2)Oc2cc1ccc2O` (stereo partly shown), the MIC was 1 to 2 µg/mL (Enterococcus faecium; WCC 0553, VRE-B, BHI medium).
